Measured values of several laboratories.
Each numbered part is a random draw from the data of one study; scales do not carry over between parts.

Set 1
Target: Max dimerization protein 1, bHLH-zipper, MAX partner unstated (MXD1, Homo sapiens, UniProt Q05195, residues 56-136)
Method: protein-binding microarray
Form: double-stranded DNA, one strand shown
Matrix: in vitro
Tested at: not given
Notes: k-mer, scored over probes, only values ≥0.25
Reading: higher = stronger binding
Construct (chain): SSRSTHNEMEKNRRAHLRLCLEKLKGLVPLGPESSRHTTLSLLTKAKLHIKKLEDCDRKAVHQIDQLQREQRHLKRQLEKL
Sequence	E-score
ATGCATGA	0.303
CGTGTTAC	0.295
CTCGTGTC	0.327
CATGGGTA	0.34
ACGAGGGC	0.274
CACGAGAC	0.346
ACGACGTG	0.295
TCGTGTAA	0.284
CACATTGA	0.28
CAACATGC	0.323
AGCACATG	0.441
CATGAGGA	0.403
CACATGCC	0.451
GCGCGCGC	0.292
CATGACAC	0.315
CACGGTGC	0.314
ACATGGAG	0.348

Set 2
Target: Runt-related transcription factor 1, full length (RUNX1, Homo sapiens, UniProt Q01196-8, residues 1-480)
Method: protein-binding microarray
Form: hairpin DNA
Matrix: in vitro
Tested at: not given
Notes: whole hairpin DNA, median over replicate spots
Baseline: not given
Reading: higher = stronger binding
Sequence	median fluorescence
GAGGCCTGTTGTCGTTGGCCTCCTGGCCAACGACAACAGGCCTCACACTC	1650 a.u.
CTCAGTTCTGTGGGCCGGACTCCTGTCCGGCCCACAGAACTGAGACACTC (5mC at 28)	1970 a.u.
GAGGCCTGATGTGGTTGGCCTCCTGGCCAACCACATCAGGCCTCACACTC	2390 a.u.
CTCAGTTCTGCGGGCTGGACTCCTGTCCAGCCCGCAGAACTGAGACACTC (5mC at 11 33)	1790 a.u.
GAGGCCTGTCGCGGTTAGCCTCCTGGCTAACCGCGACAGGCCTCACACTC	4090 a.u.
GAGGCCTGTCGCGGTTGGCGTCCTCGCCAACCGCGACAGGCCTCACACTC (5mC at 25)	2960 a.u.
GAGGCCTGTCGCGGTTGCCCTCCTGGGCAACCGCGACAGGCCTCACACTC (5mC at 18)	2560 a.u.
GAGGCCCAAACGCAACAGCCTCCTGGCTGTTGCGTTTGGGCCTCACACTC	1760 a.u.
CTCAGTTCTGCGGGCTGGACTCCTGTCCAGCCCGCAGAACTGAGACACTC	2270 a.u.
CTCAGTTCTGTGGGCGGGACTCCTGTCCCGCCCACAGAACTGAGACACTC (5mC at 15)	2380 a.u.
GAGGCCTGTTGTCGTTGGCCTCCTGGCCAACGACAACAGGCCTCACACTC (5mC at 31)	1640 a.u.

Set 3
Target: Fragile X messenger ribonucleoprotein 1, C-terminal low-complexity region (Fmr1, Mus musculus, UniProt P35922)
Method: RNA Bind-n-Seq
Form: RNA
Matrix: in vitro
Tested at: 200 nM
Notes: whole 134-nt RNA, ends assumed
Together with: 150 mM LiCl
Baseline: input library
Reading: higher = stronger binding
All molecules: 7-deaza-guanosine replaces G
Constant ends, left off below: GGGAGUUCUACAGUCCGACGAUC … UGGAAUUCUCGGGUGUCAAGG
Sequence	log2 enrichment
CACAGACAACACGCACCCACACAGACACAGAGGGAAGGGGUUGGGAUGGGGACAGGGUGCACAGCAGGUCGGGGUAGGACCCCAGCCCCU	-0.534
UAACUUUAGAGGAGGAUCUGAUGGAUAUGGCAGUGGACGUGGGUUUGGGGAUGGCUAUAAUGGGUAUGGAGGAGGACCUGGAGGUGGCAA	0.451
UUCACCAGUUUCACUGUGAGCCUCAACGAGCUGGAGACAGGCAUGGAGAAGACCCUGCCACCCACGGACUGCCGCCUGCGCCCUGACAUC	1.31
GUCCUGUGCUACACAUCGUAUGUACCGAAUCGGUUUUUUGGGGUUUUUUGGUUUUUUGGAAAGUAUUAUGUUACGCCGUUCGGAUCUGCA	-1.34
UGGCCCUGGUGGCAUGCGGGGAGGAAGAGGUGGCCUCCUGGAUCGUGGUGGUCCCGGUGGAAUGUUCAGAGGUGGCCGUGGUGGAGACAG	-0.0745
CCUGUGCUACACAUCGUAUGUACCGAAUCGGGCCCCCCCGGCCCCCCCGGCCCCCCCGGGAAAGUAUUAUGUUACGCCGUUCGGAUCUGC	1.15
UGUGCUACACAUCGUAUGUACCGAAUCGGGGUUUUUUUGGGGUUUUUUUGGUUUUUUUGGGGAAAGUAUUAUGUUACGCCGUUCGGAUCU	1.21
CACAGACAACACGCACCCACACAGACACAGAGGGAAGGGGUUGGGAUGGUGACAGGGUGCACAGCAGGGCGGGGUAGGACCCCAGCCCCU	-0.0886
AGUCCUGUGCUACACAUCGUAUGUACCGAAUCAAACCCCCCCAAAUUUAAAUUUAAAAAAGUAUUAUGUUACGCCGUUCGGAUCUGCACU	1.29
CACAGACAACACGCACCCACACAGACACAGAGGGAAGGGGUUGGGAUGGGGACAGGGAGCACAGCAGGGCGGGGUAGGACCCCAGCCCCU	0.844
UGGCCCUGGUGGCAUGCGGGGAGGAAGAGGUGGCCUCAUGGAUCGUGGUGGUCCCGGUGGAAUGUACAGAGGUGGCCGUGGUGGAGACAG	-0.625

Set 4
Target: PABPC1L2, full length, GST fusion (mouse, UniProt A0ABA7IW68)
Method: RNAcompete
Form: RNA
Matrix: in vitro
Tested at: 20 nM
Notes: 7-mer, probes averaged, single round
Baseline: mean of 7-mers
Reading: higher = stronger binding
Target sequence (chain): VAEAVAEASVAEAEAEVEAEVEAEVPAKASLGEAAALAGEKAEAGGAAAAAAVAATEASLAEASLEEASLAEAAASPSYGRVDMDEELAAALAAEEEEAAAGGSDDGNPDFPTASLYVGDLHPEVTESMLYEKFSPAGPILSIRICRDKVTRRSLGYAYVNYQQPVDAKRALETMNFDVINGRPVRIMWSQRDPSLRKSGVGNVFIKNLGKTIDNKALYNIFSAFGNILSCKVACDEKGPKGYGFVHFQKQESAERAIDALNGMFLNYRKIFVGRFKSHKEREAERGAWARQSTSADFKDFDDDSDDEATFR
Sequence	7-mer Z-score
CCCUAGA	-0.0446
UUCCGAA	-0.012
AAUAUGU	0.423
GAAUGGA	0.113
ACCUAUA	-0.0138
GAAACAU	1.5
UAGGCUA	-0.0482
GGACUCG	-0.0409
GUCACCG	-0.0736
AACAACA	0.715
AUAACUU	-0.0609
CGAUAGU	-0.193
GGGCGAA	0.649
CUACCGU	-0.248
UUAUCCA	-0.26
ACACGGG	0.24
UUGCGCU	-0.224
UCUGUCC	-0.507
CCGCAAC	-0.215
GCGAAUG	-0.0935
GUACAGG	0.148
UAAGAGA	0.0134
AUACAUG	0.0334
UGUUGCC	-0.36
CUGCAUC	-0.222

Set 5
Target: Histone acetyltransferase KAT6A, both winged helices, GST fusion (KAT6A, Homo sapiens, UniProt Q92794, residues 1-181)
Method: protein binding microarray
Form: double-stranded DNA, one strand shown
Matrix: in vitro
Tested at: not given
Notes: 8-mer, flanks averaged, mean of 2 arrays, mostly near background
Baseline: not given
Reading: higher = stronger binding
Target sequence (chain): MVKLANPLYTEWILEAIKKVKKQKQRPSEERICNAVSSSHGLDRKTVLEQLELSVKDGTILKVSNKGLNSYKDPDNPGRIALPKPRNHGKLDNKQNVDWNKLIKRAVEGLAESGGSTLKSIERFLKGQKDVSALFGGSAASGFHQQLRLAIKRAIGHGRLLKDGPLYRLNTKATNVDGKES
Sequence	E-score
ATAATAGA	-0.0959
GGGTCGTA	0.0407
AAGAAACA	0.0471
ACCCTACA	-0.248
CAGCCAGA	-0.248
AGGTATAC	-0.0607
CGCGAGCG	0.363
GGTAGTTA	-0.00762
AACGCTTA	0.079
GCAGCGGA	0.119
GGGCCACA	-0.126
AGCATCCT	-0.14
GTCATTTA	-0.169
TTAAATAA	0.0206
CAGTTTCG	-0.0475
CCACGCAG	0.0271
GCACCCAC	0.00178
CGGGACCG	0.322
ATGGCCGA	0.0709
AGAATCGA	-0.168
